Assay results gathered from unrelated publications.
Every numbered part comes from another study and shows a few of its results, in no order. Substitutions count along the parent as printed.

Series 1 — technique: RNA Bind-n-Seq; molecule type: RNA; matrix: in vitro; concentration: 20 nM; notes: 6-mer, flanks averaged, single round; with: 150 mM KCl; relative to: input library; reading: higher = stronger binding
Target: TAR DNA-binding protein 43, full length, His tag (TARDBP, Homo sapiens, UniProt Q13148, residues 1-414)
Sequence	6-mer enrichment (R)
AACACA	0.667
CAGCCG	0.859
UCCCGC	0.61
AAUAAC	1.05
ACAUAA	0.671
GAAUGC	1.04
UUAUCC	0.562
CAUGCG	0.981

Series 2 — technique: RNAcompete; molecule type: RNA; matrix: in vitro; concentration: 20 nM; notes: 7-mer, probes averaged, single round; relative to: mean of 7-mers; reading: higher = stronger binding
Target: PABPC1L2, full length, GST fusion (mouse, UniProt A0ABA7IW68)
Target sequence (chain): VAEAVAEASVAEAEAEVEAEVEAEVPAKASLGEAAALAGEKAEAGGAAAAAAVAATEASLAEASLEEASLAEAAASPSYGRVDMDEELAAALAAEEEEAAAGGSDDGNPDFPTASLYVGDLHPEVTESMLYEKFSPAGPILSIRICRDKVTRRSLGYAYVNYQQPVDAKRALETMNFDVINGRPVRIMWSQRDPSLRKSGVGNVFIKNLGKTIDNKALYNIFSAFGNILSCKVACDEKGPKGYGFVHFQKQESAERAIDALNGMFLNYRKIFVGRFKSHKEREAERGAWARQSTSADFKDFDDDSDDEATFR
Sequence	7-mer Z-score
GGUGGGA	0.242
UGUUAAG	-0.295
AACGUCG	-0.0264
UUGCAAU	-0.215
GCGUGAG	-0.286
GUGCCUA	-0.121
CCGUAGG	-0.204
GCCCAAC	-0.344

Further values, each from its own experiment
P1: viral docking peptide; YKVKRRLVFGADD; partner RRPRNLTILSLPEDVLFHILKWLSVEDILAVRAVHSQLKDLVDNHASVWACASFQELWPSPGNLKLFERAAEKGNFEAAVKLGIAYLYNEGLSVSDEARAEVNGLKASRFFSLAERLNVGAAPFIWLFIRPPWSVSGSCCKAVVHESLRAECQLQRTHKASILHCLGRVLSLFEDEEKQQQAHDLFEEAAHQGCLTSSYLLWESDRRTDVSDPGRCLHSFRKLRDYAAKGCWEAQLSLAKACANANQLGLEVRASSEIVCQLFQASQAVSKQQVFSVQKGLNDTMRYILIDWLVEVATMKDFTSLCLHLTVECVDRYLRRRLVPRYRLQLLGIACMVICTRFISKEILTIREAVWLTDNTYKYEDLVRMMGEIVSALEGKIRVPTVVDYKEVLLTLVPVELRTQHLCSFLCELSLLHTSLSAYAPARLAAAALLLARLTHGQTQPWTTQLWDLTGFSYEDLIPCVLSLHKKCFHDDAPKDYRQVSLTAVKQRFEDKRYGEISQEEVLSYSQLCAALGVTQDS
Substance	target	test	system	setting	how to read	endpoint	value
P1 K2V	CCNF, cyclin fold, Cln2 fusion (human)	yeast growth competition, sequencing	yeast	strong parent motif	relative to: not given, higher = stronger binding	normalised enrichment score	8.58
APFARLLNL	HLA class I histocompatibility antigen, A alpha chain, allele A*80:01 (Homo sapiens, UniProt P04439)	peptide-MHC binding	peptide		direction not given	z-score of log IC50	0.38

Repeated from above (series 2):
Sequence	7-mer Z-score
CCGUAGG	-0.204
UUGCAAU	-0.215
GGUGGGA	0.242
